Experimental data pooled from the literature.
Each numbered part is a random draw from the data of one study; scales do not carry over between parts.

Block 1 — technique: protein-binding microarray; molecule type: double-stranded DNA, one strand shown; sample: in vitro; tested at: 0.8 µM; setting: whole 60-bp probe, no competitor; direction: higher = stronger binding; measurement: fluorescence intensity
Target: Centromere-binding protein 1, full length, N-terminal tag (CBF1, Saccharomyces cerevisiae, UniProt P17106, residues 1-351)
Sequence of UniProt P17106 (whole entry, looked up): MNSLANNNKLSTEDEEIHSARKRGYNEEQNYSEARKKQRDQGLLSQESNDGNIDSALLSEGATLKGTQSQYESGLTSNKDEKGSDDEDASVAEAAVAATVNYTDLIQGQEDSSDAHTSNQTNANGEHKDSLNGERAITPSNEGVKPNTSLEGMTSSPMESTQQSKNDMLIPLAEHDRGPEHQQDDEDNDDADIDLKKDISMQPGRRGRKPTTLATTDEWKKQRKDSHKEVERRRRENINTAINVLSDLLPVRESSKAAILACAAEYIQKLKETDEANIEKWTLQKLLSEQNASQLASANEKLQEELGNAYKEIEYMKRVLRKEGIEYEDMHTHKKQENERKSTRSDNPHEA
GAACTTCTTTTAGTGCACGTACTTTTTGGACTGTAGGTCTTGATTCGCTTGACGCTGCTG: 558 a.u.
GAATCCCTTTTTCAACAGTCACGTGCGCATCTCTAGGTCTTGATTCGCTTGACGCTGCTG: 15100 a.u.
GAAAGAAATACTGCAGGTGAGGCTGAAAGGTCGTAGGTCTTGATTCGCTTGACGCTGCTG: 520 a.u.
CCTAACTACTATAAAAACGTGTAATAGCTTCGTACAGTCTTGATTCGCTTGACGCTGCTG: 527 a.u.
GAAACAAGAACATCTGGTGAAGCAGGCTACCCCTAGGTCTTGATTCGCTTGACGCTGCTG: 486 a.u.
TGTACGAAGCTATTGCATGTGTATATAGTAGTTAGGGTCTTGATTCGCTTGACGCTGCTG: 569 a.u.
CTATCTTCAGGATGGTACGTGCCACGGGACCATTTCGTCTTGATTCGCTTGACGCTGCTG: 3270 a.u.
GAAATTCACAGTACTCTCGTCAGCTTTGTCACGTAGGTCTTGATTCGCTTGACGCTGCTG: 572 a.u.
GAACTGTGCAATGATCACGAAAGACAAATTTCGTAGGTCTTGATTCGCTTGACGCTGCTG: 807 a.u.
CTACGGGTGCAATGTCACGTGCACATCACATATTTCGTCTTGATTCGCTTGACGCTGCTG: 26200 a.u.

Block 2 — technique: protein-binding microarray; molecule type: double-stranded DNA, one strand shown; sample: in vitro; tested at: 250 nM; setting: 60-bp whole probe; together with: salmon DNA 0.4 mg/ml; reference: random background probes; direction: higher = stronger binding; measurement: log fluorescence; all sequences stand within: GCCTAGCAC … GTCTTGATTCGCTTGACGCTGCTG
Target: Interferon regulatory factor 5, full length, phosphomimetic (IRF5, Homo sapiens, UniProt Q13568-2, residues 1-514, K96S/S451D/S453D/S456D/S462D)
GACGATTTCAGTTCCGCGACGTGCTAG: 1.21 z-score
TTAGATATCGGGACTGGATAAGTGCTA: 1.17 z-score
GATGGACTGCTTTTCCTGACGTGCTAG: -0.00637 z-score
TTAGGTTTCCATTCCCTTTAGTGCTAG: 1.42 z-score
TTAGGTTCCGGTTTCGGTTCGTGCTAG: 9.03 z-score

Block 3 — technique: protein binding microarray; molecule type: double-stranded DNA, one strand shown; sample: in vitro; tested at: not given; reference: not given; direction: higher = stronger binding; measurement: E-score
Target: Histone acetyltransferase KAT6A, winged helix 2, GST fusion (KAT6A, Homo sapiens, UniProt Q92794, residues 85-181)
Setting: 8-mer, flanks averaged, mean of 2 arrays, mostly near background
Residues (chain): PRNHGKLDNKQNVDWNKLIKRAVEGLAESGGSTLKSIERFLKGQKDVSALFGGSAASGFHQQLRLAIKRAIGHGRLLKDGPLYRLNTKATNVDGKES
ATATGAGC: -0.0223
GCTTGGCA: -0.0343
ACTACGAT: 0.0102
CATCTGGG: 0.0085
AGCGTCCA: -0.00938
GAGCCGGC: 0.203
ACGTACCG: -0.117
CGGCCGGC: 0.288

Further values, each from its own experiment
PhoQ, residues 284 288 289 292 302 303 TSTLRA
fold induction (PhoP, residues 12 14 15 18 19 TPLRH (Escherichia coli, UniProt P23836); Sort-seq, measured: YFP reporter; E. coli; PhoQ-PhoP variant library, together with: 10 µM Mg2+; reference: high Mg2+ state, higher = stronger signaling): 12.7

Excerpt of the above (block 1):
CTATCTTCAGGATGGTACGTGCCACGGGACCATTTCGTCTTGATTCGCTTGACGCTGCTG: 3270 a.u.
GAAATTCACAGTACTCTCGTCAGCTTTGTCACGTAGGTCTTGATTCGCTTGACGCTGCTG: 572 a.u.
GAACTGTGCAATGATCACGAAAGACAAATTTCGTAGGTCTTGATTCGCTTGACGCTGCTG: 807 a.u.
